Values quoted from earlier work as cited in several papers.
Each line is one published result; not all experiments were run side by side. Numbers after ± are the reported error. Values after ≈ are worked out from the molar mass of the structure shown.
Sequence of UniProt Q9UF33 (whole entry, looked up): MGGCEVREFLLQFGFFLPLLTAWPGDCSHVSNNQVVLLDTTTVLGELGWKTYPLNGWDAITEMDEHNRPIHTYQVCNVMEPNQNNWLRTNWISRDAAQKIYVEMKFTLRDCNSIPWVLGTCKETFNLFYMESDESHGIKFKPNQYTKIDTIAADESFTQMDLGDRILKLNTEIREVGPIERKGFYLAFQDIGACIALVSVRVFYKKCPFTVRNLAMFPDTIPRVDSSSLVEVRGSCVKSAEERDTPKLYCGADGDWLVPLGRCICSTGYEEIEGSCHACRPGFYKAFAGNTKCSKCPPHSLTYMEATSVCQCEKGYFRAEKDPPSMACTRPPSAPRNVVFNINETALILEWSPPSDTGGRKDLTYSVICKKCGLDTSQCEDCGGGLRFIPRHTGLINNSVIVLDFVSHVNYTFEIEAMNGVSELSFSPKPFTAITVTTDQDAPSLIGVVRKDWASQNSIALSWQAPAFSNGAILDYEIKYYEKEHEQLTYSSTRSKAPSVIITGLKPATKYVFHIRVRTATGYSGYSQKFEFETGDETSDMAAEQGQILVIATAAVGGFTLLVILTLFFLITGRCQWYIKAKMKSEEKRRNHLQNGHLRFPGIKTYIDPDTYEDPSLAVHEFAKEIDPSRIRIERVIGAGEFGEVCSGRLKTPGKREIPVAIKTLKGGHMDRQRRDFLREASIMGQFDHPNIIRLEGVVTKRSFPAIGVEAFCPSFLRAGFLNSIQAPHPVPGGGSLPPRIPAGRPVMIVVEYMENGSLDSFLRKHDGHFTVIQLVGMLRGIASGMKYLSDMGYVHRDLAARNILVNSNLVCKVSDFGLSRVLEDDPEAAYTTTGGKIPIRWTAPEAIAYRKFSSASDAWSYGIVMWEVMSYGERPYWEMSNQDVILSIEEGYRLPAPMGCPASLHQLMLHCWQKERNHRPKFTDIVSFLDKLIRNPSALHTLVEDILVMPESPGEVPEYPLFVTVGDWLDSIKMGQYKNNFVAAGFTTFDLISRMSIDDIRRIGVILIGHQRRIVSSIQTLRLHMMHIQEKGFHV

SMILES | tested on | assay | system | conditions | how to read | measurement | value
C[C@H](Cn1cnc2c(N)ncnc21)OCP(=O)(O)O | hepatitis B virus | item: HBV DNA | human HBeAg-negative patients | dose not given, week 24, after discontinuation | – | virologic relapse | 94%
O=c1c(O)c(-c2ccc(O)c(O)c2)oc2cc(O)cc(O)c12 | varicella-zoster virus | viral replication | – | – | – | IC50 | 3.83 µg/mL
CC(=O)Oc1ccccc1C(=O)Nc1ncc([N+](=O)[O-])s1 | Cryptosporidium | – | human, older children | dose not given | – | clinical effectiveness | > 50%
CNC(C)C1CCC(N)C(OC2C(N)CC(N)C(OC3OCC(C)(O)C(NC)C3O)C2O)O1 (stereo not drawn) | Enterobacter cloacae | – | clinical isolate RKI-No_136/15 | – | – | MIC | 4 µg/mL (≈ 8.38 µM)
Cc1cnc(N2CC3(CCOCC3)C2)c(C(=O)Nc2ccc(C(=O)N3CCc4cc(C(=O)Nc5c(C)cccc5F)sc4-c4ccccc43)cc2)c1 | respiratory syncytial virus | cytopathic effect | 5 subtype A clinical isolates | – | – | median IC50 | 0.00046 µg/mL
Oc1ccc(-c2nc(-c3ccc(OC4CCCC4)cc3)no2)cc1 | Streptococcus oralis | – | ATCC 9811 | – | – | MIC | > 128 µg/mL
O=C(/C=C/c1ccc(O)c(O)c1)O[C@H]1[C@H](O)C[C@](O)(C(=O)O)C[C@H]1O | hepatitis B virus | rcDNA level | HepG2.2.15 | – | – | IC50 | 13700 nM
COc1cc2c(c(OC)c1OC)-c1c(cc3c(c1OC)OCO3)[C@H](OC(=O)c1ccccc1)[C@@](C)(O)[C@@H](C)C2 | HIV | viral replication | – | – | – | EC50 | 0.006 µg/mL
Oc1c(I)cc(Cl)c2cccnc12 | Leishmania amazonensis | – | – | – | – | effective inhibitory concentration | 2.55 ± 0.25 µg/mL
COc1ccc(C[C@H](NC(=O)[C@H](C)NC(=O)CN2CCOCC2)C(=O)N[C@@H](Cc2ccccc2)C(=O)C2(C)CO2)cc1 (stereo in doubt) | Babesia | parasite growth | – | – | – | IC50 | 203 ± 7 nM
C=C1CC[C@H]2C(=C)CC[C@H]3C(=C)C(=O)O[C@@H]3[C@@H]12 | hepatitis B virus | HBsAg secretion | Hep3B | – | – | IC50 | 2000 nM
O=C(O)[C@H]1O[C@@H](Oc2cc3oc(-c4ccccc4)cc(=O)c3c(O)c2O)[C@H](O)[C@@H](O)[C@@H]1O | Mycoplasmoides gallisepticum | – | – | – | – | maximum antibacterial effect | 2.3 log10 CFU/mL
CC1(C)S[C@@H]2[C@H](NC(=O)[C@H](N)c3ccccc3)C(=O)N2[C@H]1C(=O)O | Acinetobacter pittii | – | clinical isolate RKI-No_588/16 | – | – | MIC | > 16 µg/mL
C=C[C@]1(C)C[C@@H](OC(=O)CSC(C)(C)CNC(=O)[C@H](N)C(C)C)[C@]2(C)[C@H](C)CC[C@]3(CCC(=O)[C@H]32)[C@@H](C)[C@@H]1O | Mycoplasmoides gallisepticum | – | – | – | – | maximum antibacterial effect | 2.69 log10 CFU/mL
COC(=O)C1=C(CN2CC(F)(F)C[C@H]2C(=O)O)NC(c2nccs2)=N[C@H]1c1ccc(F)cc1Cl | hepatitis B virus | viral replication | HepG2.2.15 cells | – | – | EC50 | 6.4 nM
CCC1=C(C)/C(=C/NC2CCCCCC2)N=C1c1ccc[nH]1 | Plasmodium yoelii | – | Kenya MRA-428 | 80 mg/kg, single dose, day 5 | – | parasitemia reduction | 100%
C[C@H]1COCCN1c1nc(-c2cnc(N)cc2C(F)F)nc(N2CCOCC2)n1 | HCT-116 | – | – | – | – | GI50 | 574 nM
COc1cccc(C(=O)NN(C(=O)c2cc(C)cc(C)c2)C(C)(C)C)c1C | Anopheles gambiae | – | G3, females | topical, concentration not given | – | mating susceptibility | decreased
O=C(/C=C/c1ccc(O)c(O)c1)O[C@@H]1C[C@](O)(C(=O)O)C[C@@H](OC(=O)/C=C/c2ccc(O)c(O)c2)[C@H]1O | hepatitis B virus | viral antigen level, item: HBeAg | – | – | – | IC50 | 158000 nM
Cc1cc(/C=C/C#N)cc(C)c1Nc1ccnc(Nc2ccc(C#N)cc2)n1 | HIV | – | – | protein-binding adjusted | – | IC90 | 0.012 µg/mL (≈ 0.0327 µM)
Nc1cc(C(F)(F)F)c(-c2nc(N3CCOCC3)nc(N3CCOCC3)n2)cn1 | Ephrin type-A receptor 6 (EPHA6, Homo sapiens, UniProt Q9UF33) | enzyme activity | – | 10 µM | relative to: untreated | remaining activity | 89%

Some of these lines once more:
SMILES | tested on | assay | system | conditions | how to read | measurement | value
O=C(/C=C/c1ccc(O)c(O)c1)O[C@H]1[C@H](O)C[C@](O)(C(=O)O)C[C@H]1O | hepatitis B virus | rcDNA level | HepG2.2.15 | – | – | IC50 | 13700 nM
O=C(/C=C/c1ccc(O)c(O)c1)O[C@@H]1C[C@](O)(C(=O)O)C[C@@H](OC(=O)/C=C/c2ccc(O)c(O)c2)[C@H]1O | hepatitis B virus | viral antigen level, item: HBeAg | – | – | – | IC50 | 158000 nM
